Results collected from several papers.
A part holds a random share of what one study measured.
UniProt O15530, sequence (whole entry, looked up): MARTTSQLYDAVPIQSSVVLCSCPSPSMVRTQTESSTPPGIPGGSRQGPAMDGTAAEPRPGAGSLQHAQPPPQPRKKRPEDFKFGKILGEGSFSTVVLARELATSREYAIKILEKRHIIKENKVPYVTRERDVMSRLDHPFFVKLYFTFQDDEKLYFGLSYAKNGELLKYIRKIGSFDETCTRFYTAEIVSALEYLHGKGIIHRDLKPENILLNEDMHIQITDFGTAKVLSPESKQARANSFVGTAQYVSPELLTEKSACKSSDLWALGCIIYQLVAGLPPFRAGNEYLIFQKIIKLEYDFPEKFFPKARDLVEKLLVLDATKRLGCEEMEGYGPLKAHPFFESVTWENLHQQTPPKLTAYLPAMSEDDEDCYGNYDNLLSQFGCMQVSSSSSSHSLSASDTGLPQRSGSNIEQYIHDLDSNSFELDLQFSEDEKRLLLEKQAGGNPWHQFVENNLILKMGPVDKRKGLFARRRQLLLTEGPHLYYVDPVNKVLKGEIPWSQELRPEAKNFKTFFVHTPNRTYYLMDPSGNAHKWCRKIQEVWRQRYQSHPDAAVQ
UniProt Q16816, sequence (whole entry, looked up): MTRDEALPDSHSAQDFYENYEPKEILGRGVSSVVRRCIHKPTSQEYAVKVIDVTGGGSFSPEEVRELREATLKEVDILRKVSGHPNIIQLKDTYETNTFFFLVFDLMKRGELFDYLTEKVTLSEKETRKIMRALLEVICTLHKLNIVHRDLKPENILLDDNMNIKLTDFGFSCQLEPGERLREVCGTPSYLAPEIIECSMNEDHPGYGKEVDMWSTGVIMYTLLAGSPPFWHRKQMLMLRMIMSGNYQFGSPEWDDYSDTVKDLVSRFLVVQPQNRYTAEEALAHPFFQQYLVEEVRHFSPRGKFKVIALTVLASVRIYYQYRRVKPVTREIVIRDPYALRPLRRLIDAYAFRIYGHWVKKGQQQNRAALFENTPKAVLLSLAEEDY
UniProt P54762, sequence (whole entry, looked up): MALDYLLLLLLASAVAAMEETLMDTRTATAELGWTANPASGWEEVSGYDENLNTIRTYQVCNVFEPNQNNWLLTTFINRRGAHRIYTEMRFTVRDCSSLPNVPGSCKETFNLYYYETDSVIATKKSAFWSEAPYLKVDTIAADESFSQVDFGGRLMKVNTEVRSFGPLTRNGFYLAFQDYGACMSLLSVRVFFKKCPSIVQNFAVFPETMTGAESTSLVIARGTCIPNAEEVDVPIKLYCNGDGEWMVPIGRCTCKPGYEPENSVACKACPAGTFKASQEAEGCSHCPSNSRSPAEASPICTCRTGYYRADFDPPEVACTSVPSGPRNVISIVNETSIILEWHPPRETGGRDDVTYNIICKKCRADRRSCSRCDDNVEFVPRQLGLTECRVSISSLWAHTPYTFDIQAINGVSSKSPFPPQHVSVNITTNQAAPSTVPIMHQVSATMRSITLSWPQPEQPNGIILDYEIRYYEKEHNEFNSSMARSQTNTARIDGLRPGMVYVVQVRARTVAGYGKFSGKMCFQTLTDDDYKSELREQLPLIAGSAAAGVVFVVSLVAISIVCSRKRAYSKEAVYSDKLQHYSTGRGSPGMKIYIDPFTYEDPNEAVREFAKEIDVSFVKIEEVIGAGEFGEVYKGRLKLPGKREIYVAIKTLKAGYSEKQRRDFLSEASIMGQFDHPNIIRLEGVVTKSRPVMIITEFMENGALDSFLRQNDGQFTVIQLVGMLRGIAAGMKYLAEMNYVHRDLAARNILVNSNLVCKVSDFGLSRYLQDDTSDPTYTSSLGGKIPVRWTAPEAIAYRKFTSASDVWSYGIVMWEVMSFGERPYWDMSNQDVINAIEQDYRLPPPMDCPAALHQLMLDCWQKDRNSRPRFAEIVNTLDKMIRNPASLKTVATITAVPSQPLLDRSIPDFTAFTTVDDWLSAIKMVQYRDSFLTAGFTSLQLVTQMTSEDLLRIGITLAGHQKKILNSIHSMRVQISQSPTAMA
UniProt Q8NE63, sequence (whole entry, looked up): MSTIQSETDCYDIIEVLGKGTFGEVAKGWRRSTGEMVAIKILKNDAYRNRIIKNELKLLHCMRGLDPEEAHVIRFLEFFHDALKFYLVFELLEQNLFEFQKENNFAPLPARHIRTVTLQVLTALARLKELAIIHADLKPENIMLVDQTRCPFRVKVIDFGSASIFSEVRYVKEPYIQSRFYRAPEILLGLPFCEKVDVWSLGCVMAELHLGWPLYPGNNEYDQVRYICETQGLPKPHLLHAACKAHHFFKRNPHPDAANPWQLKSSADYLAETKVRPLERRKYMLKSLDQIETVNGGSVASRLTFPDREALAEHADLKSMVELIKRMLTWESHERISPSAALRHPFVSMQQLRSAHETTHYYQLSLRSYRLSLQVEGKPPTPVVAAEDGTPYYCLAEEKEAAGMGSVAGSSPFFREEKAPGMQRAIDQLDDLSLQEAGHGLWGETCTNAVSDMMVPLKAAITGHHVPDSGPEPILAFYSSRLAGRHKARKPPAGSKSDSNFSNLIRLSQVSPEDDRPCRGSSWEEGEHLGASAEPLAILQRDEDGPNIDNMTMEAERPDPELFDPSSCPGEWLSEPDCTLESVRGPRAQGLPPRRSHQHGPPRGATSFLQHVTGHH
UniProt Q9BYP7, sequence (whole entry, looked up): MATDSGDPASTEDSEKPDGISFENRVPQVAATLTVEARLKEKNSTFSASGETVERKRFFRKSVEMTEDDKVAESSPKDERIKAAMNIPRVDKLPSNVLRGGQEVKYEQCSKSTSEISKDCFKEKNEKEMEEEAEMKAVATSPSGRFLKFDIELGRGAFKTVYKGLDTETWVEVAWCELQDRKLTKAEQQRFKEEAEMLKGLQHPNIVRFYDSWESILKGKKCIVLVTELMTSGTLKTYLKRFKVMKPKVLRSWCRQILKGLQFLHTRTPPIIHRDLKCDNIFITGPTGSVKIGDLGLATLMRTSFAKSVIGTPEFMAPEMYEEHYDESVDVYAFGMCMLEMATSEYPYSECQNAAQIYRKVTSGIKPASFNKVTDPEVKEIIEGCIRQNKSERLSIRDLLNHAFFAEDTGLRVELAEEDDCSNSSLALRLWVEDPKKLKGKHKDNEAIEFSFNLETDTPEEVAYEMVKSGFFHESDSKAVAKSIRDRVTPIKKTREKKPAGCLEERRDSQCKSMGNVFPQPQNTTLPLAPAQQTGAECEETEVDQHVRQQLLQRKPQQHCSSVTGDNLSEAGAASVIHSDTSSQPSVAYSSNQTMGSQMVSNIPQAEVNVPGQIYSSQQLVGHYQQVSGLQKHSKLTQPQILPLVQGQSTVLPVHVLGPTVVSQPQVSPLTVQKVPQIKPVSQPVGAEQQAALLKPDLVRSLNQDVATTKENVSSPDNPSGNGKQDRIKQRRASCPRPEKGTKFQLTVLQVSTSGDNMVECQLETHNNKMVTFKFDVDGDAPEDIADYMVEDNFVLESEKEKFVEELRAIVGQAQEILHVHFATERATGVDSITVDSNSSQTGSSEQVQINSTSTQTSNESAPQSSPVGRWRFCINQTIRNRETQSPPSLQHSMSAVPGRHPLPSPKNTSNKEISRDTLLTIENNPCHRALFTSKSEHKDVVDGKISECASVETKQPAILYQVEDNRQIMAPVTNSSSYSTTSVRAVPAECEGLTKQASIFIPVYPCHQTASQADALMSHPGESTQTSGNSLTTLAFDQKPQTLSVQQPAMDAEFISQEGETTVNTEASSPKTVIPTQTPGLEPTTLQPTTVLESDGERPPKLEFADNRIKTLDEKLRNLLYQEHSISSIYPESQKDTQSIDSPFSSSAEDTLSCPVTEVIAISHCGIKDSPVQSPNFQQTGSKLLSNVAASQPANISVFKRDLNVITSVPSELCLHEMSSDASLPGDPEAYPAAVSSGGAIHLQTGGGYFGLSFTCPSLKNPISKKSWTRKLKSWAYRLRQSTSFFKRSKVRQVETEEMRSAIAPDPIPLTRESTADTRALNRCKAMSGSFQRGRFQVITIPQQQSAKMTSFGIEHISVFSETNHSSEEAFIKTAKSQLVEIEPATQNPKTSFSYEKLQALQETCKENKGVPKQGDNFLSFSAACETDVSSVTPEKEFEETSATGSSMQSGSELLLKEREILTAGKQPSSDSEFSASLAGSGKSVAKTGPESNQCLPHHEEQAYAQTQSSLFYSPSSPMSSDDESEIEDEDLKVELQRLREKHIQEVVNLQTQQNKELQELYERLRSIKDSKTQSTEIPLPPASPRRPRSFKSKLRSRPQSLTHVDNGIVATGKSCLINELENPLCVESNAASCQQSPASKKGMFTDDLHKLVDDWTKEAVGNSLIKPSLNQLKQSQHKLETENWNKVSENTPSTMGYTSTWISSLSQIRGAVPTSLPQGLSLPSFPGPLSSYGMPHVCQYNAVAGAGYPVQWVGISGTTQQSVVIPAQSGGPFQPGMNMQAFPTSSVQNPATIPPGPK
UniProt O75716, sequence (whole entry, looked up): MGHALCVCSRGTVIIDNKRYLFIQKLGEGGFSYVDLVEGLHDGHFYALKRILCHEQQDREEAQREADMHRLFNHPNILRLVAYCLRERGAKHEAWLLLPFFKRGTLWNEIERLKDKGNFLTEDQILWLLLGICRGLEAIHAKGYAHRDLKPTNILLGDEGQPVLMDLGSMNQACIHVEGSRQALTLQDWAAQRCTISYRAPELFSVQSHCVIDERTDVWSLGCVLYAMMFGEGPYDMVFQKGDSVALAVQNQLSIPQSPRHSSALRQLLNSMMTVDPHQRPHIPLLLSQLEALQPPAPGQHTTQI

Block 1 — method: competition protein-binding microarray; form: double-stranded DNA, one strand shown; sample: in vitro; concentration: 2 µM; together with: Cbf1 competitor, 0.05 µM; reading: higher = stronger binding; all sequences stand within: … GTCTTGATTCGCTTGACGCTGCTG
Target: Phosphate system positive regulatory protein PHO4, full length, GST-tagged (PHO4, Saccharomyces cerevisiae, UniProt P07270, residues 1-312)
Notes: whole 60-bp probe, lowest competitor level
Target sequence (chain): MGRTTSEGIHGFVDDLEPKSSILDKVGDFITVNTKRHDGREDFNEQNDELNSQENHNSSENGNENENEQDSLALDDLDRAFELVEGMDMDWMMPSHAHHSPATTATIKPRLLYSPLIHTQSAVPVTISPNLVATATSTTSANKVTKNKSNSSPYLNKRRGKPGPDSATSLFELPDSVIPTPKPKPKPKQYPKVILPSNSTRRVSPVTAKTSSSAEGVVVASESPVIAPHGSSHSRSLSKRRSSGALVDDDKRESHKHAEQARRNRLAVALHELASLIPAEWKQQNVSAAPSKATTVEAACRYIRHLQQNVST
| Sequence | fluorescence intensity [a.u.] |
| --- | --- |
| AAATTACTAAGTTGGCTTGTGGGTGACGCCGTATGA | 3910 |
| CGGGGTTAAGTTTGAGCCGTGGGTGGCTTGCAGCAG | 5790 |
| TCGGTGATGGTATTGCTCGTGTTTTTGGTTTGAACA | 8370 |
| CGTCCTAGTGATTTTCACGTGCTTTCCATGAGGAAG | 14200 |
| AAAGCGGTAATTTGAAATGTGGGTGCAGATATCTAT | 5640 |
| CTTTGTCTTGAAATGCGCGTGTCGGTAAAATATTGT | 10100 |
| CGGGGTTAAGTTTGTGTAGTGGGTGGCTTGCAGCAG | 5010 |
| CTTCTGTAAATTTTTCACGTGAGGTGAAGCGCCCCG | 10300 |

Block 2 — method: RNA Bind-n-Seq; form: RNA; sample: in vitro; concentration: 90 pmol; notes: 4-mer, random 30-nt RNA, single round; relative to: input library; reading: higher = stronger binding
Target: Eukaryotic initiation factor 4A-I (EIF4A1, Homo sapiens, UniProt P60842, residues 1-406, full length assumed)
UniProt P60842, sequence (whole entry, looked up): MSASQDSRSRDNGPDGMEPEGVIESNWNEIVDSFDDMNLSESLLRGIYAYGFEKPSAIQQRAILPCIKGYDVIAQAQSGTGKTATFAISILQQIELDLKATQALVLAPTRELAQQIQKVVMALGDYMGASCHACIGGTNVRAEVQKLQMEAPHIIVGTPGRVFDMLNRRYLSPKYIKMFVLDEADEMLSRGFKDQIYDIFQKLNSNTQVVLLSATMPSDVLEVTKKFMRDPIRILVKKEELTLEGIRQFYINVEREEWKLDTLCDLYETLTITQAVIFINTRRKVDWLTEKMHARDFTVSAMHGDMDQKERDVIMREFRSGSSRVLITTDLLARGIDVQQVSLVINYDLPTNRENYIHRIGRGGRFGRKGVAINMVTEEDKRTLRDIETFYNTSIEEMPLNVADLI
Together with: 3 µM iPr-DMDA-PatA, 2 mM ADP, 2 mM phosphate
| Sequence | 4-mer enrichment [fold] |
| --- | --- |
| UUCG | 0.944 |
| CUAG | 0.971 |
| CAUC | 0.979 |
| GAGU | 1.09 |
| CUCA | 1.03 |
| AGGA | 1.09 |
| AAUC | 1.29 |
| GAAA | 1.49 |

Block 3 — observed: enzyme activity; mode: inhibitor; concentration: 0.5 µM; relative to: control
Structure (SMILES): Nc1nc(Nc2ccc(S(N)(=O)=O)cc2)nn1C(=O)c1c(F)cccc1F
| target | remaining activity [%] |
| --- | --- |
| TSSK2 (Homo sapiens, UniProt Q96PF2) | 103 |
| Cyclin-dependent kinase 4, with cyclin D3 (CDK4, Homo sapiens, UniProt P11802) | 34.7 |
| MAPKAPK3 (Homo sapiens, UniProt Q16644) | 98 |
| HIPK4 (Homo sapiens, UniProt Q8NE63) | 67.7 |
| EPHB1 (Homo sapiens, UniProt P54762) | 84.1 |
| PDPK1 (Homo sapiens, UniProt O15530) | 92.3 |
| PHKG1 (Homo sapiens, UniProt Q16816) | 102 |
| STK16 (Homo sapiens, UniProt O75716) | 48.5 |
| WNK3 (Homo sapiens, UniProt Q9BYP7) | 98.3 |
| AXL (Homo sapiens, UniProt P30530) | 94.2 |

Single results of other studies
| Structure (SMILES) | cell line | concentration | relative to | quantity | value |
| --- | --- | --- | --- | --- | --- |
| Cn1cncc1[C@@](O)(COc1ccc(C#N)cc1-c1ccc(OC(F)(F)F)cc1)c1ccc(C#N)cc1 | patient-derived normal-adjacent epithelium organoids | 1 µM | DMSO control | viability | 79% |

Some of these lines once more (block 1):
| Sequence | fluorescence intensity [a.u.] |
| --- | --- |
| CGGGGTTAAGTTTGTGTAGTGGGTGGCTTGCAGCAG | 5010 |
| AAATTACTAAGTTGGCTTGTGGGTGACGCCGTATGA | 3910 |
